Experimental data gathered from unrelated publications.
Every numbered part comes from another study and shows a few of its results, in no order. Numbers after ± are the reported error.
Sequence of UniProt Q61473 (whole entry, looked up): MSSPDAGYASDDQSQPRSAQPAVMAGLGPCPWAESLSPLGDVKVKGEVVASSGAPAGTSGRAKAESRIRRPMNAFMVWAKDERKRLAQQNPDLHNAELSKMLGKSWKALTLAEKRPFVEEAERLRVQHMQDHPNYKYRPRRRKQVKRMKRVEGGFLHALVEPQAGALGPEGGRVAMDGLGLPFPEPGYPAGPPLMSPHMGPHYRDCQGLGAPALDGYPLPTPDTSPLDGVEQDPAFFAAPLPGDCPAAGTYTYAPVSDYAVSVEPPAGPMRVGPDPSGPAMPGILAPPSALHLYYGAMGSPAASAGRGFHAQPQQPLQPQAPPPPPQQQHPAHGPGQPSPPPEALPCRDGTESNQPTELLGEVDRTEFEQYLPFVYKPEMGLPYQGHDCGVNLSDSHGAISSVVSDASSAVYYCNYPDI

Series 1
Target: Histone acetyltransferase KAT6A, winged helix 2, GST fusion (KAT6A, Homo sapiens, UniProt Q92794, residues 85-181)
Method: protein binding microarray
Molecule type: double-stranded DNA, one strand shown
Sample: in vitro
Concentration: not given
Setting: 8-mer, flanks averaged, mean of 2 arrays, mostly near background
Reference: not given
Direction: higher = stronger binding
Residues (chain): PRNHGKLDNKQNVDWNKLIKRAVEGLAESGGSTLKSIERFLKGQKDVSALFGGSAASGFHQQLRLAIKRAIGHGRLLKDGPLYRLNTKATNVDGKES
Sequence	E-score
GTTTACTA	-0.0205
AGAATGAC	-0.159
AGGGGGTA	0.00069

Series 2
Target: Sal-like protein 4, full length isoform B (SALL4, Homo sapiens, UniProt Q9UJQ4-2, residues 1-616)
Method: universal PBM
Molecule type: double-stranded DNA, one strand shown
Sample: in vitro
Concentration: not given
Setting: 8-mer, flanks averaged, mean of replicates
Direction: higher = stronger binding
Target sequence (chain): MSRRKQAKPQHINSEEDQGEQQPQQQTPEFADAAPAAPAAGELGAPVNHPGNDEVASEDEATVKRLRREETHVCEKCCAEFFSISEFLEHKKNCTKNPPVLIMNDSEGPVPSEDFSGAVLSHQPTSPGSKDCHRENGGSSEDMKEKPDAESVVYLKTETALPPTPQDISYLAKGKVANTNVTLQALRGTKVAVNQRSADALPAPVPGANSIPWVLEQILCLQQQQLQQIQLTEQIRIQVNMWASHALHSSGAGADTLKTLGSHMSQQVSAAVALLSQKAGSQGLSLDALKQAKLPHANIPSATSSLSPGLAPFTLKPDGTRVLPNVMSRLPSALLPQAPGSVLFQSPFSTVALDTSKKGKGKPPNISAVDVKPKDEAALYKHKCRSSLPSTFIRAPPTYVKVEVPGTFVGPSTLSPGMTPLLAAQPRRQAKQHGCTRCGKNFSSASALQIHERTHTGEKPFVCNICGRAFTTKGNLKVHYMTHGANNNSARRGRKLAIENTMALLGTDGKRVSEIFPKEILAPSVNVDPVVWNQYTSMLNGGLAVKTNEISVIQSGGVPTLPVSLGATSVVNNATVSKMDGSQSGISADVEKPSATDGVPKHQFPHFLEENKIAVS
Sequence	E-score
GCAATAAA	0.283
CCCACTCC	-0.179
AACTAGAT	0.205

Mixed results
Molecule	target	assay	system	setting	scale	endpoint	result
GGCGGCGGCATTGTCCGGCGCGCGG (dsDNA)	Sox17 66-144 (Mus musculus, UniProt Q61473)	EMSA	double-stranded DNA, one strand shown	–	–	Kd	2.76 ± 2.38 nM
PhoQ, residues 284 288 289 292 302 303 SLANIV	PhoP, residues 12 14 15 18 19 TQCLL (Escherichia coli, UniProt P23836)	Sort-seq, refers to: YFP reporter	E. coli	PhoQ-PhoP variant library, together with: 10 µM Mg2+	reference: high Mg2+ state, higher = stronger signaling	fold induction	9.55

For quick reference, copied from above (series 2):
Sequence	E-score
AACTAGAT	0.205
